Measurements gathered from unrelated publications.
Parts stem from different laboratories: compare values within a part only.

Sample 1
Target: RING finger protein unkempt homolog, zinc fingers 1-6, GST-SBP tag (UNK, Homo sapiens, UniProt Q9C0B0, residues 30-357)
Technique: RNA Bind-n-Seq
Form: RNA
Medium: in vitro
Concentration: not given
Setting: RNA with constant flanks, human and mouse sites, ends assumed
Reference: input RNA pool
Direction: higher = stronger binding
Shared flanks, not repeated: GGGAGUUCUACAGUCCGACGAUC … CAACAGAGGAUUGAGCAUCA
Construct (chain): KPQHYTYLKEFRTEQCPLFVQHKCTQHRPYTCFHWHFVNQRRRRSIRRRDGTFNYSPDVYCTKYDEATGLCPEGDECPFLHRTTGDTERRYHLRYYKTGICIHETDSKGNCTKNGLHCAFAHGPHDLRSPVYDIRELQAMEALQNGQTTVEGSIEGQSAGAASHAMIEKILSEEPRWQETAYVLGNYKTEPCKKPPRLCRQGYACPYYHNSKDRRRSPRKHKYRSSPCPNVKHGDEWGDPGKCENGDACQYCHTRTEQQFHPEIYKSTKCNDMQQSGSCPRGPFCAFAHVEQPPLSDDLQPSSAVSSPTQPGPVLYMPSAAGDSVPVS
Oligonucleotide	bound/input enrichment [ratio]
CUGGAGGCCGUCCUGUUGGCCUUGGCCCGCAUCCGCCGCGCCCUGGAGCAGCAGCCCCUGGCAGCCGGGGCGGCGCCUCCCGAGCUGCAGUGGCUCCGAGCGCAGUGUGCCCGCCUCAGC	0.102
AGAGUCAAAGUUCUUCAAGAUUACACUGGCCUUAUACUCUUCCUGGAAGAGGACCACUACUUAGCCCCAGACUUUUACCAUGUCUUCAAAAAGAUGUGGAAACUGAAGCAGCAGGAGUGU	0.15
AAACUGACAGAGCUCCUCCGAUACUACAUGCUCAACAUAGAGGCUGCAAAGGAUCUCUUGUAUAGACGUACCAAAGCCCUAAUUGACUAUGAGAAUUCAAACAAAGCUUUGGACAAGGCC	0.12
GAGAACAGCAAUAUACAGGUCCUUUCUGACAGAUCUGCCACUGAAGUAGACAACAAUUUCAGCAAACCACCUCCAUUUUUCCCUCCAGGGGCUCCUCCUACUCACCUUCCUCCUCCUCCA	0.273
ACAUGAAUUUUUAACCUCCAUAAGGAAUGAUACUUGCUCUUGAUUUUAUUAGUUGCAUUUUGUAACAGGUUGGAAAAAUUAGGUAAUGGAGAACUUUGGCAUACCACUUUUGUUUCUUUU	0.391
ACUCAUGUACCCAUGUUACAGGUAUGGACUGCUGAUAAACCACAUCCACAAGAAGAGUAUUUAGAUUGCCUGUGGGCCCAGAUUCAGAAAUUGAAAAAGGAUCGCUGGCAGGAACGGCAC	0.188
AUGUCAUUAAGCUCUGAUGGUUGUAUAUAUGAAACCUUGAUACCAAUACGUCCAGCUGACCCAGAAAAAAAUCAGAGCUUAGUUAAAUCACUGCUGCUCAAGGCUGUUGUAUCUGGUAAC	0.66
CUCCAAGUUCGAAGCAUUCAGCAAGUGGUGGCAAGGCAGAGCCACCAGAAGAGGGCACCUAGUUUCCAUGACAAAUAUGGGAAUGCUAUAUUAGCAGGUGGAGCCAUCUUCUGUGUUUCU	0.229
CCAUAUGAAAUGUGUAGCAGUGGCUUGGUACAAGCACUUCUUACUGUGUUAAACAAUAGCAUGGAUUUGGAUAUGAAACAAGAUUGUAGUCAACUGGUAGAAAGAAUAAAUGUUUUUAAA	12.5
GAGCAACGGAGAGCCCCACUUUCUACCAGAUGCAAUGUUUGGGCAACCAGGAGCCCUAGGUAGCACUCCAUUUCUUGGUCAGCAUGGUUUUAAUUUUUUUCCCAGUGGGAUUGACUUCUC	0.52
AAGAAGGAAGGAGAGAACUUCAAAGCUCUUUACAGGUCUGGUGUGGCCUUCUAUCAUCUUGGGGACUAUGAUAAAGCUCUCUACUACCUAAAAGAAGCAAGGACCCGACAACCCACAGAC	0.0738

Sample 2
Target: RNA binding protein fox-1 homolog 2, RRM domain, GST-SBP tag (RBFOX2, Homo sapiens, UniProt O43251-10, residues 100-194)
Technique: RNA Bind-n-Seq
Form: RNA
Medium: in vitro
Concentration: 365 nM
Setting: natural RNA segment, single round, ends assumed
Reference: no-protein control
Direction: higher = stronger binding
Shared flanks, not repeated: GGGAGUUCUACAGUCCGACGAUC … UGGAAUUCUCGGGUGCCAA
Residues (chain): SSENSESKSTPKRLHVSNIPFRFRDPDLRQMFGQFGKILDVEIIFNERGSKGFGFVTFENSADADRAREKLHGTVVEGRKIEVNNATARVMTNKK
Oligonucleotide	RBNS enrichment (R)
CCUCUGGCCCCUUACAUGCUGCCAGAGGAGAAGGUGUUUGUUUGAGAUUCAUUCCACUUGAAGUGUCUCCUGGGAUCCCCACAGCUGCGUAUGGCUGGGAAAUGGACUUA	0.278
AGCCAGGCACCCACCUCAGGACAAGUUCAGGAAGGGAAGACAGUGGACUGUACGGGACCUGGUGUGUGUGGUGGUGUGAGUGGUGGGGCUGUGGGUGAGAGAUCGCUCUC	0.705
UUCCUCCCUCUAAAAUCAAAGAGCUGAAUUAUGUGAUCCUUGAGGUCUCUUCCACUUAUAAUACCAACUGUCUUGUCAGACUGGCAAAUUAUAUUGGCCUCUCCUUAUGU	0.735
UGUCUCUAAAAGAAAAAAGAAUUAACAUCUUAUUUUCUUAGAUUUUAAGAGAGAGUCUCUGGCAAGACCCCCCUCAUCAGUUCUAAUCAUUUUAGAAGUAGACAGAAAAA	0.44
UAGAAGCCUGUGGGUUUCGAUGGUUUCUUCUAUACACCUUUUUGGUUGACCAGUAUUACUAUACAAUGUAAGUGUUUUAAAAAAUACGAAAGUAAUACUCUGCACCCCUU	0.424
UGACGGUGUGUGUGAGAGAGUGGUGGGGCGGGGUGAGAAAUUCUCUGUCCUUUUGUCUACACAUGCGUGCUGACCUUACCUGUGAGUCCACUGCCUUCGUGAAGGAUGCU	0.446
GUGAAUUGAGUUCUGCUGGGGCUAUAGAGCAUCGGGUCGGCAGCUGUCAUUCCCAGCUCUGUGACCUACUGCUUGGUACUAAAAAGGAGUUUUCUUCCAAAAGCACUGUU	0.574
UGACAUUCAUUGAGCCAAAAGAGAUGUGGAGAAACAUUUUUCACCUUUCUGUUUGGCCUGAUUAACAUUUAAAUUCUUGCCAAAAUUAAGGUAACUUUUAAAAAACACCU	0.576
GGAUAGCCGUGGCUUCAUUUAUCGUUUGCACCCAGGAGGCCUUGUAGUCUUCCAAUUGCAGGAGAUCAGCCCUACAGUGUAUUCUACGUGAACCAACAGGGCCUGGCCUU	0.391

Sample 3
Target: Interferon regulatory factor 3, full length, phosphomimetic (IRF3, Homo sapiens, UniProt Q14653, residues 1-427, S386D/S396D/S398D/S402D/T404D/S405D)
Technique: protein-binding microarray
Form: double-stranded DNA, one strand shown
Medium: in vitro
Concentration: 2540 nM top
Setting: 60-bp whole probe
With: salmon DNA 0.4 mg/ml
Reference: random background probes
Direction: higher = stronger binding
Shared flanks, not repeated: GCCTAGCAC … GTCTTGATTCGCTTGACGCTGCTG
Target sequence (chain): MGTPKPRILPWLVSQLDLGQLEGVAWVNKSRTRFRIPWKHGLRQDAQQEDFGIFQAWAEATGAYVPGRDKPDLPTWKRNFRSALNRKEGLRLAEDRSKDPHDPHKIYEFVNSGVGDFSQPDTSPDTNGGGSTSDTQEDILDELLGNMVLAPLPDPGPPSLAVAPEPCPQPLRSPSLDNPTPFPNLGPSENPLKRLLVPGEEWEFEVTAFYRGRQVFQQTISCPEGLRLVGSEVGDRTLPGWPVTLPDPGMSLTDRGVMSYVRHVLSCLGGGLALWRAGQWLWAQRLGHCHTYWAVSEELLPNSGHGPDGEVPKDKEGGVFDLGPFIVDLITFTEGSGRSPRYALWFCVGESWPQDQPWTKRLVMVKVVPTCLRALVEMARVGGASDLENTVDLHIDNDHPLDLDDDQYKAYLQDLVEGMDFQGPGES
Oligonucleotide	fitted relative affinity [z-score]
GACGGTACCCTTATCCTGACGTGCTAG	1.93
TTAGGTTTCGATTCCGGTTAGTGCTAG	8.5
GACGGTCTCGGTATCGGAACGTGCTAG	3.05
TTAGATTTTGGGTATCGATTAGTGCTA	0.159
CACTCTCTACATGTGTTTACGTGCTAG	1.71
GACCTTTTTAAGATCTGTGCGTGCTAG	2.35
TTGGATTTCAGTCTCGATTAGTGCTAG	1.73
GACGGTTTCTTACTGCTGACGTGCTAG	2.08
ATGAAAATCTCAATGGGTTAGTGCTAG	-0.479
CATCATTGCCTGTTTTTCCCCGTGCTA	0.322
TCATTTTTAGCTTGCAAACTGTGCTAG	1.18
TTAGGACTGGGTCTCGGATAGTGCTAG	-0.636
TCAAGTTTACCCATCTCACTGTGCTAG	1.28
ATAGGTTTCGGGTATCGGTTAGTGCTA	4.75
TTAGGTCTCGGACTGGTTTAGTGCTAG	-0.219
AACGAACTGGGGTTTCGAGACGTGCTA	0.367
AGTATGTTCCCTATTTAAGGGTGCTAG	2.71
GTCGGACTGGGGACTGGGGACGTGCTA	-0.539
TTAAAAAAAAAAAACTGTAACGTGCTA	-0.466
GACCGACTGGGGACTGGGGACGTGCTA	-0.455
TTAGGTTTCTTTATCCTTTAGTGCTAG	3.36
TCATTCCTCTTTCTCTGACTGTGCTAG	3.09
GACGGTATCCTACTGTTGACGTGCTAG	2.56
TTAGAACTGGGATTTCGATTAGTGCTA	-0.18
TTAGGTTACCTTTTCCTTTAGTGCTAG	7.54

Sample 4
Target: Ras GTPase-activating protein-binding protein 1, full length (G3BP1, Homo sapiens, UniProt Q13283)
Chain of UniProt Q13283 (whole entry, looked up): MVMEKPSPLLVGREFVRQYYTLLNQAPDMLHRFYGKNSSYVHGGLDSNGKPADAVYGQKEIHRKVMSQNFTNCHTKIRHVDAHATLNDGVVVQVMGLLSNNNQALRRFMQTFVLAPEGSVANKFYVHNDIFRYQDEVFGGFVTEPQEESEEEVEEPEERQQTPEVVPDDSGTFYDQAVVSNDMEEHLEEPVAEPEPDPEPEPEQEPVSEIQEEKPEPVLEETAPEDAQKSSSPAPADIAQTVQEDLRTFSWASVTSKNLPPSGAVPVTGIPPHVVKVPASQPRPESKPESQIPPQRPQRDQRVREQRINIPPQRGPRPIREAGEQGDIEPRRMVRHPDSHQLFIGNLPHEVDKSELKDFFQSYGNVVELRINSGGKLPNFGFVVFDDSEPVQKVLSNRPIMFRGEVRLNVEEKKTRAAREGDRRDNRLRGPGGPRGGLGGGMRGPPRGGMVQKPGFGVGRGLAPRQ
Technique: RNA Bind-n-Seq
Form: RNA
Medium: in vitro
Concentration: 200 nM
Setting: whole 134-nt RNA, ends assumed
With: 150 mM LiCl
Reference: input library
Direction: higher = stronger binding
All molecules: 7-deaza-guanosine replaces G
Shared flanks, not repeated: GGGAGUUCUACAGUCCGACGAUC … UGGAAUUCUCGGGUGUCAAGG
Oligonucleotide	log2 enrichment
GCAGGAAGUAAAAACAAAUGGAAAUGCUUCGGAUAGUGGCAGGGGUGGGGGUUGCUAAGGAAAGGCUGGGAUGGGAGUGGGUAAAGAGUU	0.103
CACAGACAACACGCACCCACACAGACACAGAGGGAAGGGGUUGGGAUGGGGACAGGGUGCACAGCAGGGCGGGCUAGGACCCCAGCCCCU	0.714
UAACUUUAGAGGAGGAUCUGAUGGAUAUGGCAGAGGACGUGGAUUUGGGGAUGGCUAUAAUGGGUAUGGAGGAGGACCUGGAGGUGGCAA	0.00957
CUCAAGUCCUGUGCUACACAUCGUAUGUACCGAAUCGGGUUGGGUUGGGGUUGGAAAGUAUUAUGUUACGCCGUUCGGAUCUGCACUUCC	0.337
AAGUCCUGUGCUACACAUCGUAUGUACCGAAUCAAACCCAAAUUUUUAAACCCAAAAAAGUAUUAUGUUACGCCGUUCGGAUCUGCACUU	1.36
CCUCAAGUCCUGUGCUACACAUCGUAUGUACCGAAUCGGCCGGCCGGCCGGGAAAGUAUUAUGUUACGCCGUUCGGAUCUGCACUUCCAG	-0.0583
AAGUCCUGUGCUACACAUCGUAUGUACCGAAUCGGUUUUUGGUUUGGAAAAAAAGGAAAGUAUUAUGUUACGCCGUUCGGAUCUGCACUU	-1.91
CUCAAGUCCUGUGCUACACAUCGUAUGUACCGAAUCGGAGGAGGAAAAAAAGGAAAGUAUUAUGUUACGCCGUUCGGAUCUGCACUUCCA	-0.816
AGUCCUGUGCUACACAUCGUAUGUACCGAAUCAAACCCAAAUUUAAACCCCCCCAAAAAAGUAUUAUGUUACGCCGUUCGGAUCUGCACU	1.21
CACAGACAACCCGCACCCACACAGACACAGAGGGAAGGGGUUGGGAUGGGGACAGGGUGCACAGCAGGGCGGGGUAGGACCCCAGCCCCU	-1.06
UCCUCAAGUCCUGUGCUACACAUCGUAUGUACCGAAUCGGUUUGGUGGUGGAAAGUAUUAUGUUACGCCGUUCGGAUCUGCACUUCCAGC	0.187

For quick reference, copied from above (sample 3):
Oligonucleotide	fitted relative affinity [z-score]
CACTCTCTACATGTGTTTACGTGCTAG	1.71
GACCTTTTTAAGATCTGTGCGTGCTAG	2.35
TTGGATTTCAGTCTCGATTAGTGCTAG	1.73
GACGGTTTCTTACTGCTGACGTGCTAG	2.08
ATGAAAATCTCAATGGGTTAGTGCTAG	-0.479
CATCATTGCCTGTTTTTCCCCGTGCTA	0.322
TCATTTTTAGCTTGCAAACTGTGCTAG	1.18
